Measured values gathered from unrelated publications.
Lines come from different studies, so protocols differ. ± gives the spread as reported.

SMILES = c1ccc(-c2nc(N3CCC(c4ccccn4)C3)c3ccccc3n2)nc1 (centres unmarked); test system = female Balb/c mice, plasma; setting = intravenous, 2 mg/kg, together with: ABT 2 h prior; half-life = 2.3 h
SMILES = COc1cc([C@@H]2Oc3cc([C@H]4Oc5cc(O)cc(O)c5C(=O)[C@@H]4O)ccc3O[C@H]2CO)ccc1O; test system = FVB wild-type mice, plasma; setting = oral gavage, 500 mg/kg silymarin; half-life = 0.32 h
SMILES = Cc1cc2sc(N)nc2c2cccnc12; test system = BALB/c mice, female, plasma; setting = intraperitoneal, 30 mg/kg; half-life = 2.84 h
SMILES = CCN1CCN(Cc2ccc(NC(=O)c3ccc(C)c(NC(=O)c4cncc(-c5cccs5)c4)c3)cc2C(F)(F)F)CC1; test system = C57BL/6 mice, epithelial lining fluid; setting = intraperitoneal, 15 mg/kg; half-life = 1.77 h
SMILES = FC(F)(F)CN1CC(n2cc(Oc3ccn4nc(Cl)cc4n3)cn2)C1; test system = FVB mice, blood; setting = oral; half-life = 1.8 h
SMILES = Cc1cc(C)c(CNC(=O)c2cc(Cl)c3c(c2C)O[C@@](C)([C@H]2CC[C@H](N(C)C)CC2)O3)c(=O)[nH]1; test system = female CB17 SCID mice, HT-1376 xenograft, plasma; setting = 75 mg/kg, day 1; half-life = 3 h
SMILES = COc1cccc2c(N3CCC(CCP(=O)(O)O)CC3)ncnc12; assay = LC-MS; test system = female mice, MC-38 subcutaneous tumour, MC-38 tumour; setting = subcutaneous, 50 mg/kg; half-life = 2.3 h
SMILES = COc1cc([C@H]2Oc3ccc([C@H]4Oc5cc(O)cc(O)c5C(=O)[C@@H]4O)cc3O[C@@H]2CO)ccc1O; test system = FVB wild-type mice, plasma; setting = oral gavage, 500 mg/kg silymarin; half-life = 0.31 h
SMILES = CNC(=O)c1cc(Oc2ccc(NC(=O)Nc3ccc(Cl)c(C(F)(F)F)c3)c(F)c2)ccn1; test system = male DBA/1lacJ Oatp1b2 knockout mice, plasma; setting = oral, 10 mg/kg single dose; half-life = 12.5 ± 1.75 h
SMILES = Cc1c(C(=O)O)ccc2c3n(nc12)[C@@H]1[C@H](C3)N(CC2CC2)[C@@]2(C(=O)Nc3cc(Cl)ccc32)[C@H]1c1cccc(Cl)c1F; test system = female BALB/c nude mice, SJSA-1 xenograft, plasma; setting = oral, 2 mg/kg once daily, mean; half-life = 17.6 h
SMILES = CN[C@@H](C)C(=O)N[C@H]1CN(C(=O)CC(C)C)CC[C@H]2CC[C@@H](C(=O)NC(c3ccccc3)c3ccccc3)N2C1=O; test system = SCID mice, MDA-MB-231 xenograft; half-life = ~3 h

For quick reference, copied from above:
SMILES = CN[C@@H](C)C(=O)N[C@H]1CN(C(=O)CC(C)C)CC[C@H]2CC[C@@H](C(=O)NC(c3ccccc3)c3ccccc3)N2C1=O; test system = SCID mice, MDA-MB-231 xenograft; half-life = ~3 h
